Measurements of several laboratories.
Numbered parts are unrelated; each lists some results of a single study. Substitutions count along the parent as printed.
UniProt P49459, sequence (whole entry, looked up): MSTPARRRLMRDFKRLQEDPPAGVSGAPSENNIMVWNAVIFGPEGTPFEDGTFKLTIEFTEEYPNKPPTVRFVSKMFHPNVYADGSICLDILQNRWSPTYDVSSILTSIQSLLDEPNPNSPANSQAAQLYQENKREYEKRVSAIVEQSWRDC
UniProt Q96B02, sequence (whole entry, looked up): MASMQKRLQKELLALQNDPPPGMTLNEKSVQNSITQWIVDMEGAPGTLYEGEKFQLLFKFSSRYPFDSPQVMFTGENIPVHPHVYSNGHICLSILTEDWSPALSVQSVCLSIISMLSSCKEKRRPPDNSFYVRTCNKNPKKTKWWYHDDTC
UniProt P61077, sequence (whole entry, looked up): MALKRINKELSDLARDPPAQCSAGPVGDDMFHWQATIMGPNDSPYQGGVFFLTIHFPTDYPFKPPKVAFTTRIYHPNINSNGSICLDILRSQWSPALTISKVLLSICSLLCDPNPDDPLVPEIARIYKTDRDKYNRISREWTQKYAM

Set 1
Target: HLA class I histocompatibility antigen, A alpha chain, allele A*25:01 (Homo sapiens, UniProt P04439)
Effect on: peptide-MHC binding
Molecule type: peptide
Tested at: concentration not given
Sequence | binding
MARPADASM | inactive
LVGNTLTTC | inactive
RTDNGGWAH | inactive

Set 2
Molecule: RNF141 RING domain (UniProt Q8WVD5)
UniProt Q8WVD5, sequence (whole entry, looked up): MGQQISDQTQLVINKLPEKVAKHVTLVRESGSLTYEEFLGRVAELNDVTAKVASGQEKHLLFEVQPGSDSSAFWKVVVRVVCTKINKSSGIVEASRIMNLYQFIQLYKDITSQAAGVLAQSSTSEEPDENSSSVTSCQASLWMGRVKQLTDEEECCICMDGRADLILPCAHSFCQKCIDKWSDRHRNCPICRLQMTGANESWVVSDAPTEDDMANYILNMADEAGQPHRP
Method: yeast two-hybrid
Sample: yeast
Notes: mostly zero background
Relative to: not given
Reading: higher = stronger interaction
target | lacZ reporter activity
UBE2D3 UBC core domain (UniProt P61077) | 0
UBE2A UBC core domain (UniProt P49459) | 0
UBE2W UBC core domain (UniProt Q96B02) | 0

Set 3
Target: CCNA1, cyclin fold, Cln2 fusion (human)
Method: yeast growth competition, sequencing
Sample: yeast
Notes: strong parent motif
Relative to: not given
Reading: higher = stronger binding
Parent: viral docking peptide; YKVKRRLVFGADD
Variant | normalised enrichment score
YKVKSRLVFGADD [R5S] | 0.127
YKVKRELVFGADD [R6E] | 0.836
YKVKRRLEFGADD [V8E] | 1.89
YKVKRRLGFGADD [V8G] | 0.325
YKVKRHLVFGADD [R6H] | 0.536

Set 4
Target: RNA binding protein fox-1 homolog 2, RRM domain, GST-SBP tag (RBFOX2, Homo sapiens, UniProt O43251-10, residues 100-194)
Method: RNA Bind-n-Seq
Molecule type: RNA
Sample: in vitro
Tested at: 365 nM
Notes: natural RNA segment, single round, ends assumed
Relative to: no-protein control
Reading: higher = stronger binding
All sequences stand within: GGGAGUUCUACAGUCCGACGAUC … UGGAAUUCUCGGGUGCCAA
Residues (chain): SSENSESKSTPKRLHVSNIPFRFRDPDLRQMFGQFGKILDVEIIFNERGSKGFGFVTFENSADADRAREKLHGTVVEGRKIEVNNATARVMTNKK
Strand | RBNS enrichment (R)
UUAUUAACAGUUAUUAGGUUGUCAUUUAAAAAUAAAGUUCCUUUAUAUUUCUGUCCCAUCAGGAAAACUGAAGGAUAUGGGGAAUCAUUGGUUAUCUUCCAUUGUGUUUU | 0.408
GUCUGUCCUGGGGACGUGGAGGGUGGCAGCGUCCCCGCCUGCACCAGUGCCGUCCUGCUGAUGUGGUAGGCUAGCAAUAUUUUGGUUAAAAUCAUGUUUGUGACUGUAAC | 0.974
CACUGUAGCUGUCUUCAGACACACUAGAAGAGGGCAUCAGAUUCCAUUACAGAUGGUUGUGAGCCGCCAUGUGGUUGCUGGGAGUAGAACUCAGGACCUCUGGGAAAGCA | 7.47
GUAGUGCUUCAUAUACUUUGGGGACGUAAUAUAGGAGAUAGUCUUACAUAAGUAAUAUAGAAACAGCCACAUUUGUCCAUUAAUGCAUAAGAAGCAAAGUAAAGUUUUCU | 0.34
GUGGAUUUGAAGAGGGGUUGAAAGAAAGGAAGCAUUCCUCUUGCUUUAAACUAGUAUGUGCAUCAGAUGCUUACAGCAGAAGUUUGCACAGGUAAGAGAAGCUGCCAGUG | 0.431
CUGGAUGGAUAUGAGACAGCCCGCUAUGGGACAGGGGUCUUUGGCCAGAGUGAGUACUUACGAUAUCAAGAGGCCUUGAGUGAGCUGGCCACUGUGGUCAAAGCACGAAU | 1.03
AGGCCGAGUGACAGCCAGCCCUGGAACCCCCCGACCCCCGCAGCUGCUGCAGCCAGUGUGCCAGUGUGCGUUCGACAAAUGGAAAAGCAGAUUGGGGCCAGGGAGUCAGC | 0.712
UUUGUAUUUAAUUUUAAAGUCAGUGUACUGCAAGGAGGCUGGAUGCAAGAUAGAUACUAUAUUAAACUGUACUGUUAUUUAAGAUGUAAUAAAGCAGUUUGACAUGAGGG | 0.387

Repeated from above (set 4):
Strand | RBNS enrichment (R)
GUAGUGCUUCAUAUACUUUGGGGACGUAAUAUAGGAGAUAGUCUUACAUAAGUAAUAUAGAAACAGCCACAUUUGUCCAUUAAUGCAUAAGAAGCAAAGUAAAGUUUUCU | 0.34
